Assay results of several laboratories.
Each line is one published result; not all experiments were run side by side. Numbers after ± are the reported error.
APP amyloid-beta peptide: Amyloid-beta precursor protein, amyloid-beta peptide (APP, Homo sapiens, UniProt P05067)

Sequences of proteins named here, by UniProt entry; tags and fusion partners are left off. Residues count along the entry.
UniProt P05067, whole entry, looked up: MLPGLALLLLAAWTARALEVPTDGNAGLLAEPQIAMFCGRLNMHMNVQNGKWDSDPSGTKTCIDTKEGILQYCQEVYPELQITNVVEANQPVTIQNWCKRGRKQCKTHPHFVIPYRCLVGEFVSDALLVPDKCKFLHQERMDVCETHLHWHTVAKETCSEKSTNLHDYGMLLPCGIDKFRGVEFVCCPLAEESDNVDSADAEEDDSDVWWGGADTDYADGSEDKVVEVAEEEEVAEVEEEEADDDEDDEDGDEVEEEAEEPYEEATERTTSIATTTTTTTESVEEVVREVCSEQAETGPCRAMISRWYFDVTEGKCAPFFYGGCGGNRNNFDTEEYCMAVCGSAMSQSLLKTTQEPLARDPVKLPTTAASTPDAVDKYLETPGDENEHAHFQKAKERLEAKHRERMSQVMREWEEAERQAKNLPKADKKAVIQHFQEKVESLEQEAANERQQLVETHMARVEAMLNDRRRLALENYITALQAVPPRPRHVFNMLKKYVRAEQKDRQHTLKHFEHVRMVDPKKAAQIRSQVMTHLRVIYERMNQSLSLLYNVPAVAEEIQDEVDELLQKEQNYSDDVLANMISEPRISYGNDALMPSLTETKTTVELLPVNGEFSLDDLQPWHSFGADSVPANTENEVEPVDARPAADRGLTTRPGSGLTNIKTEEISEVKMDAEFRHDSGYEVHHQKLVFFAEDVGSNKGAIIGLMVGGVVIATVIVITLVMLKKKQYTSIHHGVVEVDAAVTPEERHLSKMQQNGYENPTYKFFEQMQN
UniProt Q96RJ0, whole entry: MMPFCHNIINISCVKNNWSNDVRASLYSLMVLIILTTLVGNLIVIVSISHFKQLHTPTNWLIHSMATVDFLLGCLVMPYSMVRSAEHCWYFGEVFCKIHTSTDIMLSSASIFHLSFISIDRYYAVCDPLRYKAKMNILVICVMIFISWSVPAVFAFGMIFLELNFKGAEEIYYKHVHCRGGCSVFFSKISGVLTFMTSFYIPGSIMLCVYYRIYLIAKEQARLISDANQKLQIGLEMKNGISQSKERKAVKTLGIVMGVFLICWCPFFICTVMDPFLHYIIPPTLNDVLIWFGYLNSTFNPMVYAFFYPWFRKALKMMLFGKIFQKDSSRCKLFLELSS
UniProt Q13304, whole entry: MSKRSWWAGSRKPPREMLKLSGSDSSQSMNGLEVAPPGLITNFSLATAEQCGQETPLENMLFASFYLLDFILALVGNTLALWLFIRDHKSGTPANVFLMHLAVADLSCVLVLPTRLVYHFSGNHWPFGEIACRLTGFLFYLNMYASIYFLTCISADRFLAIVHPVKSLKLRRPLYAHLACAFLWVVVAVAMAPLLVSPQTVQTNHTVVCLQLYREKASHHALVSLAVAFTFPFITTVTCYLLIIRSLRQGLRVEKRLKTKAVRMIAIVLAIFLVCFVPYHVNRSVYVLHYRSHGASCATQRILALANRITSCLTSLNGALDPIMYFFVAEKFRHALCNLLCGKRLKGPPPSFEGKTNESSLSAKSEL
UniProt Q92630, whole entry: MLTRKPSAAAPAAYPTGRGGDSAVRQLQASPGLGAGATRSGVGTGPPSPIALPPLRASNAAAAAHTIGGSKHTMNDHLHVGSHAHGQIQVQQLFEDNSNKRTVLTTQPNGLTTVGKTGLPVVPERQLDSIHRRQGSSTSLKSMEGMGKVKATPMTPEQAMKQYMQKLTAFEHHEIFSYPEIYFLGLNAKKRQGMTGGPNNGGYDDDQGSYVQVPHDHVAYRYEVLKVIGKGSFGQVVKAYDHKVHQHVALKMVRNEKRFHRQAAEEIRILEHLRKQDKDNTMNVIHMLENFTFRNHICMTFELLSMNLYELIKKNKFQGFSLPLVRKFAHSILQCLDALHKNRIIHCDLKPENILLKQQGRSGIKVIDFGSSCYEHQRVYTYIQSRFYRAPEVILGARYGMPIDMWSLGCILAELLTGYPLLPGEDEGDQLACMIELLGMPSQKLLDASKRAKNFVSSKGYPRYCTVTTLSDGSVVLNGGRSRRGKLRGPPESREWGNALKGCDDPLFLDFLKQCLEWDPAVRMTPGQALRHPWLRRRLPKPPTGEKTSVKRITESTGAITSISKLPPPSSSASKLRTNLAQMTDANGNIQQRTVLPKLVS
UniProt Q00960, 27-1482 limits assumed: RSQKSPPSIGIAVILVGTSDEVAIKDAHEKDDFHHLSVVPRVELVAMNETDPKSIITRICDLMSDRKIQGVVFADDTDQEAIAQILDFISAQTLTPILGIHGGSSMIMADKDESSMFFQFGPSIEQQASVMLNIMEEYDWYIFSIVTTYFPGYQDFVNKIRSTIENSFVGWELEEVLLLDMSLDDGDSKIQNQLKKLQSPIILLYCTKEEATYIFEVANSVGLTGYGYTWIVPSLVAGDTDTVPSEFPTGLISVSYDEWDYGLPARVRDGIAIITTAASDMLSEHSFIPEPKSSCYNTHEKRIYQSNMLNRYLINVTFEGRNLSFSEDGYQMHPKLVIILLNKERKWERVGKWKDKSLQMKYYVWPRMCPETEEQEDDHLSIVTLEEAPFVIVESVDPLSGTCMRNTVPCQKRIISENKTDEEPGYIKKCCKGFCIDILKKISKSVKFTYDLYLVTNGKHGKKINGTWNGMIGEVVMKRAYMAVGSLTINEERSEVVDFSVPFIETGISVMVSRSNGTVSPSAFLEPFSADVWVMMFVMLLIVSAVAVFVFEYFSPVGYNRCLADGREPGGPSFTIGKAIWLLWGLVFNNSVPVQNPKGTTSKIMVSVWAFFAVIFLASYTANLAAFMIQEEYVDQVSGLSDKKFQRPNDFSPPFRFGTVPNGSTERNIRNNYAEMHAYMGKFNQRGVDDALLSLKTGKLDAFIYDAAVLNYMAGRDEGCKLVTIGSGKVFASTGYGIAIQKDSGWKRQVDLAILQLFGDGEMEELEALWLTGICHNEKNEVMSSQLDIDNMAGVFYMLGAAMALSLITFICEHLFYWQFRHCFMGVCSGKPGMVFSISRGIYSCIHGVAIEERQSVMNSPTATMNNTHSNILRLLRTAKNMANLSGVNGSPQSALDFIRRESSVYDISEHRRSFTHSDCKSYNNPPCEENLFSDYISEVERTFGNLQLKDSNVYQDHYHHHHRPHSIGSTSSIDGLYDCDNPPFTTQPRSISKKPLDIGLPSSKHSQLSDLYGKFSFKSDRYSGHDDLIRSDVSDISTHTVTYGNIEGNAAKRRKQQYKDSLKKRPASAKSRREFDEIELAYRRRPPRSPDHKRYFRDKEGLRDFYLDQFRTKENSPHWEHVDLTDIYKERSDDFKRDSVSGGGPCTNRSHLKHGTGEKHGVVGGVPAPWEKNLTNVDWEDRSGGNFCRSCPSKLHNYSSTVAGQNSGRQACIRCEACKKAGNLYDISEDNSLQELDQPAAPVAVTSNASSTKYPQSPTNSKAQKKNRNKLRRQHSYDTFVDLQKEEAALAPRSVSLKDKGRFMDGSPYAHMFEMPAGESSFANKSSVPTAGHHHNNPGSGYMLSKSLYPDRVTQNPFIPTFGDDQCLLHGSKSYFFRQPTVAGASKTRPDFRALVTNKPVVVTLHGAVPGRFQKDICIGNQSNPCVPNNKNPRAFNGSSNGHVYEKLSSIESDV
UniProt P08238, whole entry: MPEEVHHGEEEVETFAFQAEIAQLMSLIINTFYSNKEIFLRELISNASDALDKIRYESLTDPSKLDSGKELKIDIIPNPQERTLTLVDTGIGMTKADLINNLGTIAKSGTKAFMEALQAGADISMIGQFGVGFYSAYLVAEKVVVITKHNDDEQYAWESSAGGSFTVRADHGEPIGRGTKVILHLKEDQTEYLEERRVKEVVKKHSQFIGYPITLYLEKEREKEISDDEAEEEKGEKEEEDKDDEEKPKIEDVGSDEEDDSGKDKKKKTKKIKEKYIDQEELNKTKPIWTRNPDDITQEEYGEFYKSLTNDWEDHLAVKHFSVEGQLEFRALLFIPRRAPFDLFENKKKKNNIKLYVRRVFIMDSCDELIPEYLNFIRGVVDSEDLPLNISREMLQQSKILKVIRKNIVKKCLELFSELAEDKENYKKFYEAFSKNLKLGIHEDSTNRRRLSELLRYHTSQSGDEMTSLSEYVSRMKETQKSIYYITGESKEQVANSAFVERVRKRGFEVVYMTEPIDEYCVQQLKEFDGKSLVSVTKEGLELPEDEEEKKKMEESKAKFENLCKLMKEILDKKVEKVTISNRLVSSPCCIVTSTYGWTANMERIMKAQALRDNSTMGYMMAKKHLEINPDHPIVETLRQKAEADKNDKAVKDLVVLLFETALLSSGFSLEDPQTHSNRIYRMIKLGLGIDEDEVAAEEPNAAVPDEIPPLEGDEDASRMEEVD
UniProt O43353, whole entry: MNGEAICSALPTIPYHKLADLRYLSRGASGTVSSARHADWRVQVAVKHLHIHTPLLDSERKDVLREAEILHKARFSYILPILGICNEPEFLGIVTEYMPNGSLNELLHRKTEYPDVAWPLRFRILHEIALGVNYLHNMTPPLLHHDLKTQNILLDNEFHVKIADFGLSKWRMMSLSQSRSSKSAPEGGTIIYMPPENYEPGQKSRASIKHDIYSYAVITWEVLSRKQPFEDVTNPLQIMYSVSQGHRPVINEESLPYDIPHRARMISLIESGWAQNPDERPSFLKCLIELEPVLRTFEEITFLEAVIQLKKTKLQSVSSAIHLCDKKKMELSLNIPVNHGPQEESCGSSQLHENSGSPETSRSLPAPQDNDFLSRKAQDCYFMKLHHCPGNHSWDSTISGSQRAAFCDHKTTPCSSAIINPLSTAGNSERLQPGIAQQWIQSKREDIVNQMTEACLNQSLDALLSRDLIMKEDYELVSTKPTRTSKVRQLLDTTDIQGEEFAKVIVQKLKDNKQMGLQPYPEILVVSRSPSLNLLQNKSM
UniProt P00558, whole entry: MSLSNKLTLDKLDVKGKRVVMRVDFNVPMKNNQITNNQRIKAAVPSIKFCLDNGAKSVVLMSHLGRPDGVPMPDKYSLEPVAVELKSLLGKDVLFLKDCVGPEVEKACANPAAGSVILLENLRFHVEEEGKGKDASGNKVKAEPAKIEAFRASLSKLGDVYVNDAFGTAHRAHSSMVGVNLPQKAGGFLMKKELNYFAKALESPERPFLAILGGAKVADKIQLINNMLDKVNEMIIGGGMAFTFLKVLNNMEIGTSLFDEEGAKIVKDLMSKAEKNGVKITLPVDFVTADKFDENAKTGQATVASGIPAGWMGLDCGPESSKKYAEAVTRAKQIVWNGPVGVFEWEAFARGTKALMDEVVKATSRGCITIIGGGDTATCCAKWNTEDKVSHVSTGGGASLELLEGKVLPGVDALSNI
UniProt Q04609, whole entry: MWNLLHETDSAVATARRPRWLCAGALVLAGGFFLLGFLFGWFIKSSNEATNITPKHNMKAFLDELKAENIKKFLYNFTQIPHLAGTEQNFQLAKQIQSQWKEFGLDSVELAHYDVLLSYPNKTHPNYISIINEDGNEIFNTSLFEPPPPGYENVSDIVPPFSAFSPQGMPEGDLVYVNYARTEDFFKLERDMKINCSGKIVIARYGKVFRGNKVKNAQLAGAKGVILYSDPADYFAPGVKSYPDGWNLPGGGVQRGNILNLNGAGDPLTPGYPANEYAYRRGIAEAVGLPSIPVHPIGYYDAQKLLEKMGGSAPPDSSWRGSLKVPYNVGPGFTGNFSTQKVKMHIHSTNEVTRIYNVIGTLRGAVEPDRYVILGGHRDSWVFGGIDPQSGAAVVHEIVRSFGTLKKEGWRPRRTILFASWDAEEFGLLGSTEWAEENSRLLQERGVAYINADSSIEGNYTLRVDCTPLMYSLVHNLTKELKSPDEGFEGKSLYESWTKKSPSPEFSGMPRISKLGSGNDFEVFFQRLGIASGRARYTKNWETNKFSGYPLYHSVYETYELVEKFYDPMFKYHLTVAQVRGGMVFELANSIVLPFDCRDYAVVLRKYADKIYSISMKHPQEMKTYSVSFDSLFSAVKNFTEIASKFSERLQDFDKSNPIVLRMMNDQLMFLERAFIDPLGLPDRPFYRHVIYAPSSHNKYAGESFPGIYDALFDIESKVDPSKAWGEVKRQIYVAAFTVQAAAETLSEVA
UniProt Q9Y3Z3, whole entry: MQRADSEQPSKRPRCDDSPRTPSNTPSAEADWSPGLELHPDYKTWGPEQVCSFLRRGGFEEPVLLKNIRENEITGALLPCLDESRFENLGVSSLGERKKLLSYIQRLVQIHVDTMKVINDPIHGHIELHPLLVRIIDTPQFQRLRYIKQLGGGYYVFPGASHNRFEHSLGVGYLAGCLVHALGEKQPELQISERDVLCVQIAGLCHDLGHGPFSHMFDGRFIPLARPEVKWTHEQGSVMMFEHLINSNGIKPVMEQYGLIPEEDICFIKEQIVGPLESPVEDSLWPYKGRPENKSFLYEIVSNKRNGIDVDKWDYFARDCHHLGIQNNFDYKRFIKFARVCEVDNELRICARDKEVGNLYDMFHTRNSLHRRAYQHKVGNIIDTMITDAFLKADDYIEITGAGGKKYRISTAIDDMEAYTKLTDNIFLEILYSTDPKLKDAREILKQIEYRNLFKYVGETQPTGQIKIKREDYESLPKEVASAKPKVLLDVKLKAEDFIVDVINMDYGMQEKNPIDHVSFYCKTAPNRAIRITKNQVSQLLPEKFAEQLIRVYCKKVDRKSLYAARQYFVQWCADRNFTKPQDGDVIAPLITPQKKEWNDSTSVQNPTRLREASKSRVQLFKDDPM

SMILES | target | test | test system | setting | IC50 [nM]
COc1cc(Nc2ncnc3cc(I)ccc23)cc(OC)c1OC | PKN3 (Homo sapiens, UniProt Q6P5Z2) | binding, split-luciferase |  |  | < 1000
O=C(CN1C(=O)C=CC1=O)N1CCN(c2cc(N3CCCC3)nc(N3CCCC3)n2)CC1 | Caspase-1 (CASP1, Homo sapiens, UniProt P29466) | inhibitor |  | 45 min preincubation | 94 ± 13
CNC(=O)CSc1nc(-c2ccc(Cl)cc2)cc(C(F)(F)F)c1C#N | TAAR1 (Homo sapiens, UniProt Q96RJ0) |  |  |  | 985
CC(=NNC(N)=NO)c1ccc(NC(=O)c2cc3cccc([N+](=O)[O-])c3[nH]2)cc1 | CHEK2 (Homo sapiens, UniProt O96017) | kinase activity, inhibitor, IMAP fluorescence polarisation |  | 60 min | 0.07 ± 0.03
CS(=O)(=O)Nc1ccc(/C=C/c2c[nH]c3ccc(C#N)cc23)cc1 | APP amyloid-beta peptide | Aβ42 oligomerisation, ELISA |  |  | 17200
Cc1c(N)cccc1C(=O)N1C[C@H](O)C[C@H]1C(=O)NCc1ccc(-c2cnco2)cc1 | von Hippel-Lindau disease tumor suppressor, with elongin B, C (VHL, Homo sapiens, UniProt P40337) | binding, fluorescence polarization |  | 10% DMSO, added: FAM-HIF1α peptide tracer | 18900 ± 2300
COC(=O)Cc1ccc(C(NS(=O)(=O)c2cccs2)C(=O)Nc2ccc(Cl)cc2)cc1 (stereo not shown) | Uracil nucleotide/cysteinyl leukotriene receptor, long isoform (GPR17, Homo sapiens, UniProt Q13304) | calcium mobilization, antagonist | 1321-N1 |  | 3580 ± 240
COc1ccc2nc3ccccc3c(SCCCN)c2c1 | DYRK2 (Homo sapiens, UniProt Q92630) | inhibitor |  | added: Woodtide peptide | 190
N#Cc1ccc2[nH]cc(/C=C/c3cccc([N+](=O)[O-])c3)c2c1 | APP amyloid-beta peptide | Aβ42 oligomerisation, ELISA |  |  | 11700
O=C(O)c1cc(C(=O)N[C@@H](Cc2ccc(O)cc2)C(=O)O)cc([C@H]2CCN[C@@H]2C(=O)O)c1 | Glutamate receptor ionotropic, NMDA 2B, with GluN1 (Grin2b, Rattus norvegicus, UniProt Q00960) | ion current, antagonist, two-electrode voltage clamp | Xenopus oocytes | GluN1/GluN2B, added: glycine 100 µM and glutamate 1 µM | 1730 ± 50
O=C(c1ccc(O)c(C(F)(F)F)c1)N1Cc2ccccc2C1 | HSP90AB1 (Homo sapiens, UniProt P08238) | binding, fluorescence polarization |  | added: FITC-geldanamycin tracer | > 100000
O=C(Nc1cccc(F)c1)c1cc(S(=O)(=O)N2CCOCC2)c(Cl)cc1Cl | Autotaxin (ENPP2, Homo sapiens, UniProt Q13822, F275A) | enzyme activity, inhibitor |  | added: FS-3 | > 3000
CC(=O)N1CC=C(c2cc3c(Nc4cc5ncsc5cc4F)ncnc3s2)CC1 | RIPK2 (Homo sapiens, UniProt O43353) | kinase activity, inhibitor |  |  | 11
CCc1ccc(SCC(=O)Nc2ccc3nc(SCC(=O)NC(C)C)sc3c2)cc1 | Estrogen receptor (ESR1, Homo sapiens, UniProt P03372) | reporter gene, antagonist | HEC-1 transfected ERα luciferase reporter |  | 20000 to 50000
CCOC(=O)c1nc2cc(Cl)c(Cl)cc2nc1N1CCN(C(=O)CC)CC1 | PGK1 (Homo sapiens, UniProt P00558) | enzyme activity, inhibitor, GAPDH-coupled |  | added: ATP 1.5 mM, 3-phosphoglycerate 2 mM | 680 ± 140
O=C(O)CCC(NS(=O)(=O)CCl)C(=O)O (stereo not shown) | FOLH1 (Homo sapiens, UniProt Q04609) | enzyme activity, inhibitor, HPLC |  | 15 min, pH 7.4, 37 °C, 1% Triton X-100, added: 10 mM glutamate dipeptide substrate | 17200
COc1cccc(C(=O)Nc2ccc(-c3nc4ccccc4s3)cc2)c1 | Tyrosine-protein kinase SYK, with FCER1G (SYK, Homo sapiens, UniProt P43405) | protein binding, inhibitor, TR-FRET |  |  | > 100000
Nc1nc2c(ncn2COCCNC(=O)CCCCNC(=O)c2cc3cc(Br)ccc3c(Br)c2O)c(=O)[nH]1 | SAMHD1 (Homo sapiens, UniProt Q9Y3Z3) | ssDNA binding, fluorescence anisotropy |  | 1 µM protein, added: FAM-labelled 32-mer ssDNA probe | ~5000
Cc1ccc(NC(=O)c2ccc(CN3CCC(N(C)C)C3)c(C(F)(F)F)c2)cc1N1Cc2cnc(Nc3cnn(C)c3)nc2N(C)C1=O (stereo not shown) | FGFR4 (Homo sapiens, UniProt P22455) | enzyme activity, inhibitor, radiometric kinase |  |  | < 1

For quick reference, copied from above:
SMILES | target | test | test system | setting | IC50 [nM]
Cc1c(N)cccc1C(=O)N1C[C@H](O)C[C@H]1C(=O)NCc1ccc(-c2cnco2)cc1 | von Hippel-Lindau disease tumor suppressor, with elongin B, C (VHL, Homo sapiens, UniProt P40337) | binding, fluorescence polarization |  | 10% DMSO, added: FAM-HIF1α peptide tracer | 18900 ± 2300
CC(=NNC(N)=NO)c1ccc(NC(=O)c2cc3cccc([N+](=O)[O-])c3[nH]2)cc1 | CHEK2 (Homo sapiens, UniProt O96017) | kinase activity, inhibitor, IMAP fluorescence polarisation |  | 60 min | 0.07 ± 0.03
COc1cccc(C(=O)Nc2ccc(-c3nc4ccccc4s3)cc2)c1 | Tyrosine-protein kinase SYK, with FCER1G (SYK, Homo sapiens, UniProt P43405) | protein binding, inhibitor, TR-FRET |  |  | > 100000
